Measured values of several laboratories.
Every numbered part comes from another study and shows a few of its results, in no order.

Sample 1 — method: RNA Bind-n-Seq; form: RNA; medium: in vitro; concentration: 1 µM; setting: whole 134-nt RNA, ends assumed; with: 150 mM KCl; baseline: input library; reading: higher = stronger binding
Target: Ras GTPase-activating protein-binding protein 1, RRM domain (G3BP1, Homo sapiens, UniProt Q13283)
UniProt Q13283, sequence (whole entry, looked up): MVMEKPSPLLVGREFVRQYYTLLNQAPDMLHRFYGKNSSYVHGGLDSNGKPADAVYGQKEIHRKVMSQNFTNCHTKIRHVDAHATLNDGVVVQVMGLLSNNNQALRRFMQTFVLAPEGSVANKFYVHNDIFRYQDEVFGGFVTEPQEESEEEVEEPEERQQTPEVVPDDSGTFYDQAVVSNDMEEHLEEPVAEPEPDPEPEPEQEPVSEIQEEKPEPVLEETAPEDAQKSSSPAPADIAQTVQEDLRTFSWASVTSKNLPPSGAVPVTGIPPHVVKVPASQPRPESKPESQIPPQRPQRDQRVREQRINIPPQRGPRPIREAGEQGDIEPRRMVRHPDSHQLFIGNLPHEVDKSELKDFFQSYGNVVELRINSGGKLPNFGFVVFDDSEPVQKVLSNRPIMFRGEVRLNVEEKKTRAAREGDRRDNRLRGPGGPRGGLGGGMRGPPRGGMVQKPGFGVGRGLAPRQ
Shared flanks, not repeated: GGGAGUUCUACAGUCCGACGAUC … UGGAAUUCUCGGGUGUCAAGG
| Oligonucleotide | log2 enrichment |
| --- | --- |
| CUGUGCUACACAUCGUAUGUACCGAAUCGGGGUUUUUGGGGAAAAAGGGGUUUUUUUGGGGAAAGUAUUAUGUUACGCCGUUCGGAUCUG | 1.07 |
| UAACUUUAGAGGAGGAUCUGAUGGAUAUGGCAGUGGACGUGGAUUUGGGGAUGCCUAUAAUGGGUAUGGAGGAGGACCUGGAGGUGGCAA | -0.189 |
| UGGCCCUGGUGGCAUGCGGGGAGGAAGAGGUGACCUCAUGGAUCGUGGUGGUCCCGGUGGAAUGUUCAGAGGUGGCCGUGGUGGAGACAG | 0.756 |
| UGGCCCUGGUGGCAUGCGGGGAGGAAGAGGUGGCAUCAUGGAUCGUGGUGGUCCCGGUGGAAUGUUCAGAGGUGGCCGUGGUGGAGACAG | 0.961 |
| CCUGUGCUACACAUCGUAUGUACCGAAUCGGGAAAAAAGGGGAAAAAAGGGAAAAAAGGGGAAAGUAUUAUGUUACGCCGUUCGGAUCUG | -0.0396 |
| CACAGACAACACGCACCCACACAGACACAGACGGAAGGGGUUGGGAUGGGGACAGGGUGCACAGCAGGGCGGGGUAGGACCCCAGCCCCU | -0.0293 |
| UUUAUCAUGAGGAGCUCAACGCGCCCAUACGGAGAAACAAAGAAGAGCCCAAGGCCCGGCCCUUGAGAGUAGGUGACACGGAGAAGCCAG | -0.193 |
| CCUGUGCUACACAUCGUAUGUACCGAAUCGGGGUUUUUUUGGGGAGGGGUUUUUUUGGGGAAAGUAUUAUGUUACGCCGUUCGGAUCUGC | 0.4 |
| UGGGAGGUGGAUUUUGUUUAUUUUUUUAGCUCAUUUCCAGGGGUGGGAAUUUUUUUUUAAUAUGUGUCACGAAUAAAGUUGUUUUUGAAA | 1.89 |

Sample 2 — method: protein-binding microarray; form: double-stranded DNA, one strand shown; medium: in vitro; concentration: 2540 nM top; setting: 60-bp whole probe; with: salmon DNA 0.4 mg/ml; baseline: random background probes; reading: higher = stronger binding; shared flanks, not repeated: GCCTAGCAC … GTCTTGATTCGCTTGACGCTGCTG
Target: Interferon regulatory factor 3, full length, phosphomimetic (IRF3, Homo sapiens, UniProt Q14653, residues 1-427, S386D/S396D/S398D/S402D/T404D/S405D)
UniProt Q14653, sequence (whole entry, unmodified, looked up): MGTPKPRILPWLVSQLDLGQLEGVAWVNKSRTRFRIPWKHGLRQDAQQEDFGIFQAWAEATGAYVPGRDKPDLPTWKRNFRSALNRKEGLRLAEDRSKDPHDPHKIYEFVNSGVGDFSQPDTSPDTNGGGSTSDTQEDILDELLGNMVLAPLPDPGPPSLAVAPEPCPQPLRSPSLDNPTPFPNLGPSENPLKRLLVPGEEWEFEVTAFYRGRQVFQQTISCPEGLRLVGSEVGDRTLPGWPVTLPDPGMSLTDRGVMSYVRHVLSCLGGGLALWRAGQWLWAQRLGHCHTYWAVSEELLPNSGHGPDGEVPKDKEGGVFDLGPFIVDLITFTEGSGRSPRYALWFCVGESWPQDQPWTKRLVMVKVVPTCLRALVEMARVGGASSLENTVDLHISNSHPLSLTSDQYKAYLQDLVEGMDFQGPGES
| Oligonucleotide | fitted relative affinity [z-score] |
| --- | --- |
| TTAGGTTTCGGTCTCAGTTAGTGCTAG | 8.09 |
| TGGGTTGTAGGTTTTCTGAAGGTGCTA | -0.497 |
| TCAGCTTTGCTTCCTGCACTGTGCTAG | -0.169 |
| TCAACTCTCTGGGCTGTGACTGTGCTA | -0.142 |
| AGTTCTCTGAAGACTCTCTTGGTGCTA | 0.588 |
| GACGGACTGGGTATCGCGACGTGCTAG | -0.593 |
| TTAGAACAGAGTCTCGATTAGTGCTAG | -0.22 |
| TTAGGTTTCGATTTCGGTTAGTGCTAG | 8.41 |
| GGCGAACTGAGTTTCGAGACGTGCTAG | 0.965 |
| TGTACTCTCTACATGGGCTTGTGCTAG | -0.0356 |
| AAAATTTTGCTTCTAGAACAGTGCTAG | 1.01 |
| ACCGTTGTAGTTTTCATTATGTGCTAG | 2.29 |
| GACGGTCTCCTTAGCCTGACGTGCTAG | 0.834 |
| TTAGAACTGGGTTTCGATTAGTGCTAG | 1.99 |
| TTAGAACTGGGGTATCGACTAGTGCTA | -0.609 |
| TTAGGTTTCGACTTTCGGTGAGTGCTA | 3.89 |
| TCAAGCTTTTCATTTTTTACTGTGCTA | 0.749 |
| CCTTTTATGGTATTTTTTTCGTGCTAG | 3.02 |
| GACGGTTCCGACTATCGGGACGTGCTA | 1.92 |

Sample 3 — method: RNA Bind-n-Seq; form: RNA; medium: in vitro; concentration: not given; baseline: input RNA pool; reading: higher = stronger binding
Target: RING finger protein unkempt homolog, zinc fingers 1-6, GST-SBP tag (UNK, Homo sapiens, UniProt Q9C0B0, residues 30-357)
Setting: RNA with constant flanks, human and mouse sites, ends assumed
Shared flanks, not repeated: GGGAGUUCUACAGUCCGACGAUC … CAACAGAGGAUUGAGCAUCA
Construct (chain): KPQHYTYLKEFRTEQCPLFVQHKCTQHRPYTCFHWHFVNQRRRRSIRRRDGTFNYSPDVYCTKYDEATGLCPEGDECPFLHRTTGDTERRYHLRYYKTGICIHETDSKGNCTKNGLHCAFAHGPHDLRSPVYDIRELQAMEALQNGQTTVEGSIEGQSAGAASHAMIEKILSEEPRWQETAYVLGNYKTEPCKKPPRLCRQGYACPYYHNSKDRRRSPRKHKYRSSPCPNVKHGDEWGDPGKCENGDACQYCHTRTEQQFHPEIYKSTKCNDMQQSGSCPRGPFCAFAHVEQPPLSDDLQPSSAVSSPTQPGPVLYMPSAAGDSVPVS
| Oligonucleotide | bound/input enrichment |
| --- | --- |
| CUGAGCUUGGUGCUCAAUUUUAGAAAAAUCACCGCAUUCCUCUCUAGUUCCAAACCAUACACGGAGGCAGCUUCAAGCAAACAAUUAGAAAAUCAGAACCCCCAGGGCAGGCAGCUCCUU | 8.5 ratio |
| GCGAGCAAAGUGCUGCUGUGCCAUGGGGAGCUGCGGAGCAAGAGUGGACAUAAACUUUACAUUUUCCUGUUUCAAGACAUCUUGGUUCUGACUCGGCCCGUCACACGGAACGAACGGCAC | 0.109 ratio |
| GAAGAAGCCCAUAAACUACCAGUAAAACACUUUACUAAUCCAUAUUGUAACAUCUACUUGAAUAGCGUCCAAGUAGCAAAAACUCAUGCAAGGGAGGGGCAAAACCCAGUAUGGUCAGAG | 0.357 ratio |
| CGGAACACGAUCGCCUCCAUCGCUGCUGGCGUUCUAUUUUUCACGGGAUGGUGGAUCAUCAUAGACGCGGCUGUCAUGUACCCCAGGAUGGAUCAAUUCAACCAUUCAUACCAUACCUGU | 0.0953 ratio |
| ACCACAAGUGCCACCACCUACCCCACCCCCGGUGGCCGCUGUUCCUCCAACUCCCCAGCCUUUAGCUCCUACACCUUCAGCACCCUGCCCAGCUACUCCUGCUGGACCAAAGGGAAGGGU | 0.274 ratio |
| AAGGUUACUUCAAAUCUUGAGAAGAUCCAUCUAGGCUAUCAUAAAGAUUCUUCAGAAGGAAAUGUUGCAGUGGAGUGUGACCAAGUGACCUAUACUCAUUCUGCAGGAAGACCAACUCCU | 0.165 ratio |
| UCACUUAGCUACUUUAGAUAACCUUGCAUUACCACUGGUCUGGCCACGUUUGUUAAAUCCUUAUACUGAUAUUCUUCUAAAGAGUAAAUCUCAUCAUUUUUCCAGACAAAUUUUGAGGGG | 7.35 ratio |
| GCCGGCAUAGAUGGGGUGGUUAGUAUGAGGUUCAAGGUGAAAAGAUCAGAAUACUGAGAGUAGAGUGCCAAAGGGGAAGGGAGACAGAAGCAAGGGAAAUAAAUGACACUAAUAAUGAAA | 1.12 ratio |

Sample 4 — method: RNA Bind-n-Seq; form: RNA; medium: in vitro; concentration: 365 nM; baseline: no-protein control; reading: higher = stronger binding
Target: RNA binding protein fox-1 homolog 2, RRM domain, GST-SBP tag (RBFOX2, Homo sapiens, UniProt O43251-10, residues 100-194)
Setting: natural RNA segment, single round, ends assumed
Shared flanks, not repeated: GGGAGUUCUACAGUCCGACGAUC … UGGAAUUCUCGGGUGCCAA
Construct (chain): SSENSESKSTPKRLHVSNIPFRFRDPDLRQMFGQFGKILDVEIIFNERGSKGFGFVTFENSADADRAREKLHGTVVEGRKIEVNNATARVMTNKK
| Oligonucleotide | RBNS enrichment (R) |
| --- | --- |
| UGAAUGGGAGGCCUUUCUAUAGUGGAGGCCUUUCCUUGAAGCCUAUGAACUGCAGGCCCCCUUUUGCCAUUGAUCUCAAAGCACUUGUCCUCAGGAUAGGGAAGAGCAGG | 0.288 |
| AUUUGUCAUUUCAGUUUUUUACUGAAAUUUGAGCUAAACAUUUUUACAUGUAAAUACUUGUAUUUACCAAAGAUUUAAAUCAGUUGAUUAAUUAAUUAACUCAAAUACUG | 0.388 |
| UUGGCAGUCAGGGGGGUGUCAUACAUGAUUCUUGCCUUUUCCUUUGCUUGAUGUCUAUACUGGAUCCCCAUGGUGGAGUAGGACUCUCUGUGGAGCCUCUGGCAUAAGAG | 1.22 |
| AGCCCAAUACCAGAGCAUAAACUAUCCAUUCUGGGGUCUGGCUUUAGAAAUCAUCUUUGUGGGAAGACCUAAUUCUUCACAGCAAGGAUCUCAGGCAUGCCUUCUAGAUU | 1.25 |
| UGGGGUUUCUUUUCUGUUCUUUUCGGAGGAGAGGGCCCGAGAAGGGGCCAUACCAGGGCGCGGCGCUGGGUUGCCACACUUGGGAAAGCAGCCCGGAGCUGGGUGCUGGG | 0.679 |
| CCCCAACAUGGAUGUGUUGCCCCUCCUCCGCAUGCCAACGCAGUUCAUGUACAAGGCCCCUCUGCAACUGGAGAGAAAAUUAAUUCCUAUCCCGUGAGUGGAUUGUGAGA | 4.03 |
| UGGUAGGAUAAAGCCAUUGUCCUUUAAUACCAUAGCAAAUAGAAGCAAUUUUUAAUGAGGUUACUGAAUUGUUUAGUAUUCCUAAUAUGGCAUCCAGGUCAUCUUUUCUU | 0.246 |
| GCCUACCCAUGGGCCCAAGUUUCUGUGGCUCAUUACAGGGCAUCUGACCCCUGCCACCCAGCAUAGACACACCUCACAGCUGCCCUGCCAUGCAGAGCCCUGGCCGCUGG | 0.211 |
